Measurements gathered from unrelated publications.
UniProt Q12809, sequence (whole entry, looked up): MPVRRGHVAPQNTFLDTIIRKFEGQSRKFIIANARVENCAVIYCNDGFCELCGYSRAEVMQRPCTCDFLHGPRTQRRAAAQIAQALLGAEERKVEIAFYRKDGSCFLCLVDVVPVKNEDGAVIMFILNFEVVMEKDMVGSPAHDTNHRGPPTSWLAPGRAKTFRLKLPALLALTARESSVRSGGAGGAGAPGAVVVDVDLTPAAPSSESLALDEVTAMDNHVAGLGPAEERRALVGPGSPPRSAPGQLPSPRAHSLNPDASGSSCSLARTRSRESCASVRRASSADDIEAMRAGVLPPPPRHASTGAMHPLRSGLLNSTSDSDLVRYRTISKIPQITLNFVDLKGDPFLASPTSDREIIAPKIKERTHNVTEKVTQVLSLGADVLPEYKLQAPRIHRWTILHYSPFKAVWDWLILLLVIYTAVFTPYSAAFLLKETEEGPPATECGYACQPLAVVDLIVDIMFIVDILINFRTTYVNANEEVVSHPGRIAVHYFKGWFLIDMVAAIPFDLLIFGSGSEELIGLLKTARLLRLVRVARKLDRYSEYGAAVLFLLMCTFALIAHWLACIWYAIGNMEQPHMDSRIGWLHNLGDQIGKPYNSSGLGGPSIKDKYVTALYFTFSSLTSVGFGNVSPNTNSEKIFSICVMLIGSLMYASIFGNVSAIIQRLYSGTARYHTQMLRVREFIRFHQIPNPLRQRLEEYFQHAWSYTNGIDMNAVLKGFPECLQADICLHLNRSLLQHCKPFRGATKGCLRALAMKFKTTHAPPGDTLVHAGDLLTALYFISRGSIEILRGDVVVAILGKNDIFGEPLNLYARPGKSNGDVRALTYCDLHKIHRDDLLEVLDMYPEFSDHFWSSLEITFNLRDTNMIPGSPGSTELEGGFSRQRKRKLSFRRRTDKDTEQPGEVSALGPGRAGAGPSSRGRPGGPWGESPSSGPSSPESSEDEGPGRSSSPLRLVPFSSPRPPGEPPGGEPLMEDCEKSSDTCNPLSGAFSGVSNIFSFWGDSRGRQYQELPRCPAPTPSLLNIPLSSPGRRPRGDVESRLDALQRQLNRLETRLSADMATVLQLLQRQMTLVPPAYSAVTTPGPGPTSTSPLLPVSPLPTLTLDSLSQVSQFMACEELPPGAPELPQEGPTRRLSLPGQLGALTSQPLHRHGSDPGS
UniProt Q96RR4, sequence (whole entry, looked up): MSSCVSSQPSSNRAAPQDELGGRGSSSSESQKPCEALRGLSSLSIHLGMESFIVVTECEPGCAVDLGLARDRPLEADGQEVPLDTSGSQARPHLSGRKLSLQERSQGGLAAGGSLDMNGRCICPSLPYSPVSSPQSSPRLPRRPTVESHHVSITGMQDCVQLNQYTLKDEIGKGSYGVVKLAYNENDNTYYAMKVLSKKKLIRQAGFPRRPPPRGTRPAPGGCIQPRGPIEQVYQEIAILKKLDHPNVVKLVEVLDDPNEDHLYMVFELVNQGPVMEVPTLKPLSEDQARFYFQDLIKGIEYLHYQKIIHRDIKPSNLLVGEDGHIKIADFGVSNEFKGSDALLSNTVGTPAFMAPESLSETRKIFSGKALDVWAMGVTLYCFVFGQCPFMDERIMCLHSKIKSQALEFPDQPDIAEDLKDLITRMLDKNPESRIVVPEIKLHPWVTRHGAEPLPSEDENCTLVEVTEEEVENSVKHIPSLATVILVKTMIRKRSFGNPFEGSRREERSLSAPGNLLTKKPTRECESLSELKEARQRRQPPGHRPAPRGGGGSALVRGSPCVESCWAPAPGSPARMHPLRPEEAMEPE
UniProt Q86Z02, sequence (whole entry, looked up): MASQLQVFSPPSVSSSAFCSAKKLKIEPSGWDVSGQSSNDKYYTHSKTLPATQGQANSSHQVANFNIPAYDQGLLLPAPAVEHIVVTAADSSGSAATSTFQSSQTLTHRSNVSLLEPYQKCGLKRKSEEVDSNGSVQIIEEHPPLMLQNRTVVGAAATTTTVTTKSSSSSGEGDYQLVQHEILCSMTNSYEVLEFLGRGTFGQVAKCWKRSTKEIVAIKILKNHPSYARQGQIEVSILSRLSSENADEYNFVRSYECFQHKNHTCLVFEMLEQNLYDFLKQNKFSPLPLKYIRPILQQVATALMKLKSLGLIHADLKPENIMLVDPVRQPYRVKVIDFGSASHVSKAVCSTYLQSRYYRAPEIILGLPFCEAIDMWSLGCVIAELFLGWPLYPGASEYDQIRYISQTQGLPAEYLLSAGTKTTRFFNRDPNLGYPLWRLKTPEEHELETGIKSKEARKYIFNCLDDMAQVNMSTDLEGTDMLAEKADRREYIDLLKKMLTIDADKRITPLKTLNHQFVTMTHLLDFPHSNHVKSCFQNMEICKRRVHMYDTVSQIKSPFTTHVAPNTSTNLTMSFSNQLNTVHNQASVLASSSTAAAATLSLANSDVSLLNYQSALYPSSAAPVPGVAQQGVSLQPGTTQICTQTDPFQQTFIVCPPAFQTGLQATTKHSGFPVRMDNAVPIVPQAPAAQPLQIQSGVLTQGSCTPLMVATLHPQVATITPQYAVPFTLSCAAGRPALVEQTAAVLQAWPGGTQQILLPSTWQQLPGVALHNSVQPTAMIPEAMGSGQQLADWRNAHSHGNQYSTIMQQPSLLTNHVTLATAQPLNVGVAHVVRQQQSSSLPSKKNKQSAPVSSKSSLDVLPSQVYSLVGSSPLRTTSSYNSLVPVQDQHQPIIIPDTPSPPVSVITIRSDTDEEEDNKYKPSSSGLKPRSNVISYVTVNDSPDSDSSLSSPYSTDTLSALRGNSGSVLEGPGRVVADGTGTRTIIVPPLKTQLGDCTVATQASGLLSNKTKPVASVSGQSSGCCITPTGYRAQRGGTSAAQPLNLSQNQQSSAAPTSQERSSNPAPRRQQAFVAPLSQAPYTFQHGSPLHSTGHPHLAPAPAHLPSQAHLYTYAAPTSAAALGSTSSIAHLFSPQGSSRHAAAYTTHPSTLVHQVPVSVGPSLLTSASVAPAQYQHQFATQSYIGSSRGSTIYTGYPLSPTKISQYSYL
UniProt Q8N4C8, sequence (whole entry, looked up): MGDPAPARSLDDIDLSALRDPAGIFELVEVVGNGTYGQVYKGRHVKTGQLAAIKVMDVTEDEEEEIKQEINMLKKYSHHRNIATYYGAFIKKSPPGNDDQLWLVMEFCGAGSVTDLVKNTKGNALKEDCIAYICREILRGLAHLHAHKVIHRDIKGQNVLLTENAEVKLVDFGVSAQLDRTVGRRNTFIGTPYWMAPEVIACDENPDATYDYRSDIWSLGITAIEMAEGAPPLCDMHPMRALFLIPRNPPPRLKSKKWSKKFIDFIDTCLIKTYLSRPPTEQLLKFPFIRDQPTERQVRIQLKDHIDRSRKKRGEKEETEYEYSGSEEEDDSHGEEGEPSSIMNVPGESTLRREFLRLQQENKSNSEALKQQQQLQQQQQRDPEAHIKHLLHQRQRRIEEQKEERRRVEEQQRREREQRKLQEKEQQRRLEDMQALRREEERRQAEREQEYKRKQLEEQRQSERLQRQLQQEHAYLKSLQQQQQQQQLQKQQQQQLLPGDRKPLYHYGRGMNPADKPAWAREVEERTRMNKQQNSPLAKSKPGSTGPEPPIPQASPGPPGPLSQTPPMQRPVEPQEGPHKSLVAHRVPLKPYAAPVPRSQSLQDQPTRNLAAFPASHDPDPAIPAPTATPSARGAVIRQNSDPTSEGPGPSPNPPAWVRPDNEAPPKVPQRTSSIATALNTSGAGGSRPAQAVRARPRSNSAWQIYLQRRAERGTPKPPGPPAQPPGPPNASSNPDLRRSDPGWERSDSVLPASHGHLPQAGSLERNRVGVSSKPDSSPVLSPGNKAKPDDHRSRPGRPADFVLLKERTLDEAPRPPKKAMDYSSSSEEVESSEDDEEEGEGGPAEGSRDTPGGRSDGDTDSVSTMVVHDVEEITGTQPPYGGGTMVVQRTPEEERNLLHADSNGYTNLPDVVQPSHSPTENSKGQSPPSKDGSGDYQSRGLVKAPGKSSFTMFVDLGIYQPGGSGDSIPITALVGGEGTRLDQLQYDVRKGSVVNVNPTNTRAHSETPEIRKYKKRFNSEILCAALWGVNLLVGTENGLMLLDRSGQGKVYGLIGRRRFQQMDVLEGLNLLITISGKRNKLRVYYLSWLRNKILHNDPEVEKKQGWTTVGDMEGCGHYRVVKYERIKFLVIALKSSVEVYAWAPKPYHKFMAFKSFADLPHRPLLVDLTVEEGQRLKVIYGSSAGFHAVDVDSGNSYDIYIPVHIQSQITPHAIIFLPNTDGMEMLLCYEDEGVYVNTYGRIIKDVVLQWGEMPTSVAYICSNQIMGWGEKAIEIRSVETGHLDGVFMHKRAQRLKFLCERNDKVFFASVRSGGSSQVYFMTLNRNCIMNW
UniProt P36507, sequence (whole entry, looked up): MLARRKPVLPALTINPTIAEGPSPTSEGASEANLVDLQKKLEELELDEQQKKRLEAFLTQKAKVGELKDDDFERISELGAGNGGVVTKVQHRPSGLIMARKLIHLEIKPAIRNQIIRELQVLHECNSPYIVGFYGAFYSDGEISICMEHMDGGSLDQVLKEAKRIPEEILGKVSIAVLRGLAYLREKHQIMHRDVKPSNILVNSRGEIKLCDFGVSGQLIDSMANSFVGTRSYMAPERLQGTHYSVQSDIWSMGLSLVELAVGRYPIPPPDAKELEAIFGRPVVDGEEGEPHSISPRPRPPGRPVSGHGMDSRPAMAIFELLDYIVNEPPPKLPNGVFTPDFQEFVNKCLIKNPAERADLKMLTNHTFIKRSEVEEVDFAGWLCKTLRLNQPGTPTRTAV

| SMILES | tested on | assay | system | setting | endpoint | value |
| --- | --- | --- | --- | --- | --- | --- |
| O=C1CC[C@H](N2Cc3cc(N4CCN(CC5CCN(c6ccc([C@@H]7c8ccc(O)cc8CC[C@@H]7c7ccccc7)cc6)CC5)CC4)ccc3C2=O)C(=O)N1 | – | – | male Sprague-Dawley rat, plasma | intravenous, 5 mg/kg, fed | AUC(0-t) | 5740 ng·h/mL |
| COc1cccc(OC)c1-c1cc(C(=O)NC2(C(=O)O)C3CC4CC(C3)CC2C4)nn1-c1ccc(C(=O)N(C)CCCN(C)CCCN(C)C(=O)CN2CCN(CC(=O)[O-])CCN(CC(=O)[O-])CCN(CC(=O)[O-])CC2)cc1C(C)C.[177Lu+3] (stereo not drawn) | HT-29 tumour model | – | host not given, bone | 72 h, tumour-bearing | tracer uptake | 0.22 %ID/g |
| O=C(c1ccc(F)cc1)C1CCN(CCn2c(=O)[nH]c3ccccc3c2=O)CC1 | – | metabolic stability, mass spectrometry | human, liver microsomes | 15 min | compound remaining | 66.5% |
| CNC(=O)c1cc(Oc2ccc(NC(=O)Nc3ccc(Cl)c(C(F)(F)F)c3)cc2)ccn1 | WISH | cell growth or viability, MTT | – | 12.5 µM, 24 h | viability | 40.2% |
| COc1cccc(-c2n[nH]c(SCc3ccccn3)n2)c1OC | – | – | female Sprague-Dawley rat, plasma | oral, 30 mg/kg, 8 h, single dose | concentration | 1150 ng/mL |
| Cc1cc([C@@H](C)Nc2ccccc2C(=O)O)c2nc(N3CCC(F)(F)CC3)c(C#N)c(=O)n2c1 | Dual specificity mitogen-activated protein kinase kinase 2 (MAP2K2, Homo sapiens, UniProt P36507) | binding, competition with immobilised ligand | – | 10 µM | remaining binding | 97% |
| CNc1ncc2c(/C=C/C(=O)N3CCC(OC)CC3)nn(Cc3cccc(C(F)(F)F)c3)c2n1 | Calcium/calmodulin-dependent protein kinase kinase 2 (CAMKK2, Homo sapiens, UniProt Q96RR4) | enzyme activity, inhibitor, radiometric | – | 1 µM | remaining activity | 77% |
| CNCCN1CCN(c2cnc3c(cc(C(=O)NCc4ccc(Cl)cc4)c(=O)n3CC(=O)N3CC(C)(F)C3)n2)C1=O | Voltage-gated inwardly rectifying potassium channel KCNH2 (KCNH2, Homo sapiens, UniProt Q12809) | ion current, inhibitor | – | 40 µM | inhibition | 42.2% |
| COc1cccc(OC)c1-c1cc(C(=O)NC2(C(=O)O)C3CC4CC(C3)CC2C4)nn1-c1ccc(C(=O)N(C)CCCN(C)CCCN(C)C(=O)CN2CCN(CC(=O)[O-])CCN(CC(=O)[O-])CCN(CC(=O)[O-])CC2)cc1C(C)C.[177Lu+3] (stereo not drawn) | HT-29 tumour model | – | host not given, stomach | intravenous, 4 h, tumour-bearing | tracer uptake | 1.5 %ID/g |
| COc1cc(-c2cncc3c2CN(C)Cc2cc(N4CCNCC4)ccc2-3)cc(OC)c1OC | Misshapen-like kinase 1 (MINK1, Homo sapiens, UniProt Q8N4C8) | enzyme activity, inhibitor | – | 1 µM | remaining activity | 61% |
| C=CC(=O)N1CCC(COCC(=O)N2CCN(c3nc(-c4cnc(N)nc4C(F)F)nc(N4CCOC[C@@H]4C)n3)CC2)CC1 | Homeodomain-interacting protein kinase 1 (HIPK1, Homo sapiens, UniProt Q86Z02) | binding, competition with immobilised ligand | – | 1 µM | remaining binding | 96% |
| Nc1ccn([C@@H]2O[C@H](CO)[C@@H](O)C2(F)F)c(=O)n1 | MCF7 | cell growth or viability, MTT | – | 1.25 µg/mL, 24 h | viability | 68.9% |

Repeated from above:
| SMILES | tested on | assay | system | setting | endpoint | value |
| --- | --- | --- | --- | --- | --- | --- |
| O=C1CC[C@H](N2Cc3cc(N4CCN(CC5CCN(c6ccc([C@@H]7c8ccc(O)cc8CC[C@@H]7c7ccccc7)cc6)CC5)CC4)ccc3C2=O)C(=O)N1 | – | – | male Sprague-Dawley rat, plasma | intravenous, 5 mg/kg, fed | AUC(0-t) | 5740 ng·h/mL |
